Assay results pooled from the literature.
Numbered parts are unrelated; each lists some results of a single study. Positions count from the first letter of the parent shown.

Study 1 — technique: protein-binding microarray; form: double-stranded DNA, one strand shown; matrix: in vitro; tested at: 2540 nM top; notes: 60-bp whole probe; together with: salmon DNA 0.4 mg/ml; reference: random background probes; reading: higher = stronger binding; constant ends, left off below: GCCTAGCAC … GTCTTGATTCGCTTGACGCTGCTG
Target: Interferon regulatory factor 3, full length, phosphomimetic (IRF3, Homo sapiens, UniProt Q14653, residues 1-427, S386D/S396D/S398D/S402D/T404D/S405D)
Construct (chain): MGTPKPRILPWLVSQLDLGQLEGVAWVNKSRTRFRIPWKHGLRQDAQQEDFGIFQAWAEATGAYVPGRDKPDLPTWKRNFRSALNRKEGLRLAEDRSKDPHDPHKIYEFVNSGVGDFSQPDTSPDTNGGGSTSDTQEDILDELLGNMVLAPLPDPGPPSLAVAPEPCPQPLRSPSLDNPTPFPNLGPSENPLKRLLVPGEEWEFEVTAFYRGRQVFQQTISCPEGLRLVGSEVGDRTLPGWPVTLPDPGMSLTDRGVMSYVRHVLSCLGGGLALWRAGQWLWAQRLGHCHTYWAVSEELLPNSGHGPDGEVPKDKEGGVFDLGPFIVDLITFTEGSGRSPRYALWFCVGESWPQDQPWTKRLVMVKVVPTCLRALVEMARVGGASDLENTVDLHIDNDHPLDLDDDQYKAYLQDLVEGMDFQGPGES
`GACGATTTCAGTCTCGAGCCGTGCTAG`: “fitted relative affinity” 2.12 z-score.
For `TCAACAGTTTTATTTTAGACTGTGCTA`, “fitted relative affinity” read 1.98 z-score.
For `TTAGATATCAGACTGGATTTGTGCTAG`, “fitted relative affinity” read 0.029 z-score.
For `CTAGTTTTCATTTTCTGAATGTGCTAG`, “fitted relative affinity” read 5.51 z-score.
`TCATGTATGGGCATTTTTACTGTGCTA` — result for “fitted relative affinity”: -0.514 z-score.
Under “fitted relative affinity”, `GACAGACTGGGGACTGGGGACGTGCTA` is recorded as -0.782 z-score.
`GCACTTTGGGAGGCCGAGGCGTGCTAG`: “fitted relative affinity” -0.14 z-score.
Under “fitted relative affinity”, `TCATACTTCTGTTTTTGACTGTGCTAG` is recorded as 0.925 z-score.
`TCACCTTTACATTCCCCACTGTGCTAG` — result for “fitted relative affinity”: 1.76 z-score.
`TTAGATATCAGTATCGAATAGTGCTAG` — result for “fitted relative affinity”: 1.45 z-score.

Study 2 — technique: Sort-seq; item: YFP reporter; matrix: E. coli; notes: PhoQ-PhoP variant library; together with: 10 µM Mg2+; reference: high Mg2+ state; reading: higher = stronger signaling
Substance: PhoQ, residues 284 288 289 292 302 303 AQGLTV
It gave 1.65 for fold induction (PhoP, residues 12 14 15 18 19 TQCLL (Escherichia coli, UniProt P23836)).
For PhoP, residues 12 14 15 18 19 VHTVL (Escherichia coli, UniProt P23836): fold induction read 4.25.
PhoP, residues 12 14 15 18 19 ICWRQ (Escherichia coli, UniProt P23836) — fold induction: 3.31.

Study 3 — target: CCNE2, cyclin fold, Cln2 fusion (human); technique: yeast growth competition, sequencing; matrix: yeast; notes: strong parent motif; reference: not given; reading: higher = stronger binding
Parent: PKN2 docking peptide (human); VSAVRKLDFSDTM; partner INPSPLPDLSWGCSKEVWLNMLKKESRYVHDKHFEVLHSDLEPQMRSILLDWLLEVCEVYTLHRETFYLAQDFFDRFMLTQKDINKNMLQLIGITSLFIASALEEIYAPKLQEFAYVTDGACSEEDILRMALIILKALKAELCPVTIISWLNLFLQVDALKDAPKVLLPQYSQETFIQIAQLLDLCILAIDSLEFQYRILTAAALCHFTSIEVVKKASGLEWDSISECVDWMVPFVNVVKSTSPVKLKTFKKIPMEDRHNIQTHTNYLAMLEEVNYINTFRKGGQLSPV
For `R5S`, “normalised enrichment score” read -0.0828.
For `R5P`, “normalised enrichment score” read 0.0996.
`F9L`: “normalised enrichment score” 0.298.
Under “normalised enrichment score”, `S10H` is recorded as 3.52.
For `F9Y`, “normalised enrichment score” read 0.631.
`S10D`: “normalised enrichment score” 4.27.
For `V4F`, “normalised enrichment score” read 2.03.
Under “normalised enrichment score”, `D11G` is recorded as 5.3.

Study 4 — technique: universal PBM; form: double-stranded DNA, one strand shown; matrix: in vitro; tested at: not given; reading: higher = stronger binding
Target: Sal-like protein 4, full length isoform B (SALL4, Homo sapiens, UniProt Q9UJQ4-2, residues 1-616)
Notes: 8-mer, flanks averaged, mean of replicates
`GGCCCGAA` has an E-score of -0.289.
`ATTTAAGA` has an E-score of 0.136.
With `ACAAAGGC` the E-score was -0.0899.
With `CTTGTAGA` the E-score was -0.0667.
For `CATTTCCG`, the E-score was 0.0912.
For `CAATCGAA`, the E-score was -0.0885.
With `TAGGGTGA` the E-score was -0.0263.
The E-score of `CCGCTGTA` is reported as -0.04.
`CTGGGTTC` gave an E-score of -0.227.
`CGGCAATA` has an E-score of 0.139.
The E-score of `CCTTCACA` is reported as 0.123.
`ACGCAATA` gave an E-score of 0.222.

Repeated from above (study 4):
With `ACAAAGGC` the E-score was -0.0899.
With `CTTGTAGA` the E-score was -0.0667.
